{"data": "Published values of several laboratories", "note": "A part holds a random share of what one study measured.", "chain of UniProt Q14012 (whole entry, looked up)": "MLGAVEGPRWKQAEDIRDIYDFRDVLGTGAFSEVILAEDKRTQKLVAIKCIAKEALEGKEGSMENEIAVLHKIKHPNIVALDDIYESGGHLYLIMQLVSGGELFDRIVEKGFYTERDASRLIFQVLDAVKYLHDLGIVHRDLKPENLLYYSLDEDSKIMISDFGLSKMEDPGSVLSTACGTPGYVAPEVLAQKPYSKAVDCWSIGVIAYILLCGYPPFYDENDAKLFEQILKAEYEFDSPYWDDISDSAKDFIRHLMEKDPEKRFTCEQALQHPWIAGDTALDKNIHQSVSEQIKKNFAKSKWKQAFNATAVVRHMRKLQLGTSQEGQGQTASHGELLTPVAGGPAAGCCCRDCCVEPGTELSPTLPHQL", "chain of UniProt P42336 (whole entry, unmodified, looked up)": "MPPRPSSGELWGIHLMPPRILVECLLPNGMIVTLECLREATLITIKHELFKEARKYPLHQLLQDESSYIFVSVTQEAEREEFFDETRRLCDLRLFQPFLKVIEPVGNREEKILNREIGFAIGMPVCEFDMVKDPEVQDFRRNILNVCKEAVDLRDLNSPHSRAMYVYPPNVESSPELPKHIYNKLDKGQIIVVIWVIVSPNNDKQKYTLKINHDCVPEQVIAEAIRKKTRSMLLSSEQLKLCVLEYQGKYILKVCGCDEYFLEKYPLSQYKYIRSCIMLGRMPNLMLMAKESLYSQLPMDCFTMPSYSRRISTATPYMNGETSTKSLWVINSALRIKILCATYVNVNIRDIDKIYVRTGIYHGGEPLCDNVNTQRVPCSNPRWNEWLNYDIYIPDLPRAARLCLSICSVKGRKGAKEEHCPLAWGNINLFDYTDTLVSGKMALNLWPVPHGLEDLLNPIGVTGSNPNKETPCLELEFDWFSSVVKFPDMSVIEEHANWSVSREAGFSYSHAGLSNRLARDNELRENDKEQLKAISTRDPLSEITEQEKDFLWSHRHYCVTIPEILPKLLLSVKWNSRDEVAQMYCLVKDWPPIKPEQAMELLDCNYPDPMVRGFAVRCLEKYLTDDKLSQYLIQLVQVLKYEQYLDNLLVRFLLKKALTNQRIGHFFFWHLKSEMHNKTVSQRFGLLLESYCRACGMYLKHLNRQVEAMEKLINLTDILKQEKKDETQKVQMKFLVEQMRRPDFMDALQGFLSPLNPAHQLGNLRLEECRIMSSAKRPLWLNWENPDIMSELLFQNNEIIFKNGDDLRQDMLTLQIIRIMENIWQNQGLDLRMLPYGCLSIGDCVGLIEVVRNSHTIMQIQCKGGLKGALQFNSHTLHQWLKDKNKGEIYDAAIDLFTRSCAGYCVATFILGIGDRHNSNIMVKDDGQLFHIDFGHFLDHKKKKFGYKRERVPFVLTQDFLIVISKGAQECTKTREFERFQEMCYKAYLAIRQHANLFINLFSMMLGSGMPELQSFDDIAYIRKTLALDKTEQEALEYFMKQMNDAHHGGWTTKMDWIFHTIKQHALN", "chain of UniProt Q96RR4 (whole entry, looked up)": "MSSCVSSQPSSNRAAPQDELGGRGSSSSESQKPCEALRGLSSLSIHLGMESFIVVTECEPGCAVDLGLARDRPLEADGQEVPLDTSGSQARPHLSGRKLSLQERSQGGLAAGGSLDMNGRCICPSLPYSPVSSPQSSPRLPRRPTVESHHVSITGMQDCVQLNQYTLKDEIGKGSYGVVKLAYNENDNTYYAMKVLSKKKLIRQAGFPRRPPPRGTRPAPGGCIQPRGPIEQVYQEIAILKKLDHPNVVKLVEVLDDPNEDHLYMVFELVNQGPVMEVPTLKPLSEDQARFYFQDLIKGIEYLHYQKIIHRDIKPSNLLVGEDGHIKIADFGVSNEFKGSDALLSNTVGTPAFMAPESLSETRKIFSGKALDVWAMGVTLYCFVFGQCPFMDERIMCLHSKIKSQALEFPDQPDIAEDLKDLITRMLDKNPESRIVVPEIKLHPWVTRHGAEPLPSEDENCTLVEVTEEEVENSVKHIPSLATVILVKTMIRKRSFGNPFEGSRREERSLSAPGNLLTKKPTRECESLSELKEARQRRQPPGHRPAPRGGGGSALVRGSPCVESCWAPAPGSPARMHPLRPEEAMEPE", "chain of UniProt P53778 (whole entry, looked up)": "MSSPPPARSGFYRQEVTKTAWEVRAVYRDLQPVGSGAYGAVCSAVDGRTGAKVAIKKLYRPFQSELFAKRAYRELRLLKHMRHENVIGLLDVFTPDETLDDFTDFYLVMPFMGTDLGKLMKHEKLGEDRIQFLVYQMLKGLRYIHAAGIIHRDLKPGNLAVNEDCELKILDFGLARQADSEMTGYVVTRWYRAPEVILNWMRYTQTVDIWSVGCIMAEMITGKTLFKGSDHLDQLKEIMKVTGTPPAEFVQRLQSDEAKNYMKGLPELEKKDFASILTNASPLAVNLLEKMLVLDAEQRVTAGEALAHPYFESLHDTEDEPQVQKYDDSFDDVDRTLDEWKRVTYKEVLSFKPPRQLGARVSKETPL", "chain of UniProt Q9Y243 (whole entry, looked up)": "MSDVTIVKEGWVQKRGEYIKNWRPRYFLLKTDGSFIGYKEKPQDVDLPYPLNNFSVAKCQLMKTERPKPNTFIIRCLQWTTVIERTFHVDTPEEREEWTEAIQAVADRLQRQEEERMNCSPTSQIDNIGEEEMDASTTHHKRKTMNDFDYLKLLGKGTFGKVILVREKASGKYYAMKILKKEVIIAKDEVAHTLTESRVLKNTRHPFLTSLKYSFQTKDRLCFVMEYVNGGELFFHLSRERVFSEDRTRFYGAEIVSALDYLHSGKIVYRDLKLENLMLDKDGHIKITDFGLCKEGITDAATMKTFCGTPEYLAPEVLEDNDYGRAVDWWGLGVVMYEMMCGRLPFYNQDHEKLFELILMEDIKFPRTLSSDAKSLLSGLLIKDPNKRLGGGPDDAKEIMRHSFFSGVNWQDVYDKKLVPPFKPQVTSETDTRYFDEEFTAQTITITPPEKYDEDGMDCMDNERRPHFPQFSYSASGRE", "chain of UniProt Q16816 (whole entry, looked up)": "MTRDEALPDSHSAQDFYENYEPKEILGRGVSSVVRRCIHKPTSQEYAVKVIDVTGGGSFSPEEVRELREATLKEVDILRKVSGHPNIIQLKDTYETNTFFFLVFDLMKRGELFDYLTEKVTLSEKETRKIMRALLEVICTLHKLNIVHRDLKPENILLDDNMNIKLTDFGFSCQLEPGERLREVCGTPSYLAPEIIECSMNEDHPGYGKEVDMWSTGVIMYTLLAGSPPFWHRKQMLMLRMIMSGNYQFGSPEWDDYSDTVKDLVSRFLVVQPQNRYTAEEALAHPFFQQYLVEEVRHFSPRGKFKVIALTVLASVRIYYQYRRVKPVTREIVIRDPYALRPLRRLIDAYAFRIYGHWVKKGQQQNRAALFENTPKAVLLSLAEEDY"}
{"data": "Set 1", "Compound": "C[C@@H]1CN(c2ccc(-c3cc(C(=O)NCCOCCOCCOCCOCCOCCOCCNC(=O)/C=C/c4[nH]cc(C(=O)N[C@@H](CC(N)=O)c5ccc(F)c(Cl)c5)c4-c4ccc(Cl)cc4F)ccc3F)cc2NC(=O)c2ccc(F)cc2C(F)(F)F)C[C@H](C)N1C", "observed": "thermal unfolding", "method": "differential scanning fluorimetry", "tested at": "5.5 µM", "reading": "higher = more unfolded", "DCAF1": "DDB1- and CUL4-associated factor 1 (DCAF1, Homo sapiens, UniProt Q9Y4B6)", "WDR5": "WD repeat-containing protein 5 (WDR5, Homo sapiens, UniProt P61964)", "chain of UniProt Q9Y4B6 (whole entry, looked up)": "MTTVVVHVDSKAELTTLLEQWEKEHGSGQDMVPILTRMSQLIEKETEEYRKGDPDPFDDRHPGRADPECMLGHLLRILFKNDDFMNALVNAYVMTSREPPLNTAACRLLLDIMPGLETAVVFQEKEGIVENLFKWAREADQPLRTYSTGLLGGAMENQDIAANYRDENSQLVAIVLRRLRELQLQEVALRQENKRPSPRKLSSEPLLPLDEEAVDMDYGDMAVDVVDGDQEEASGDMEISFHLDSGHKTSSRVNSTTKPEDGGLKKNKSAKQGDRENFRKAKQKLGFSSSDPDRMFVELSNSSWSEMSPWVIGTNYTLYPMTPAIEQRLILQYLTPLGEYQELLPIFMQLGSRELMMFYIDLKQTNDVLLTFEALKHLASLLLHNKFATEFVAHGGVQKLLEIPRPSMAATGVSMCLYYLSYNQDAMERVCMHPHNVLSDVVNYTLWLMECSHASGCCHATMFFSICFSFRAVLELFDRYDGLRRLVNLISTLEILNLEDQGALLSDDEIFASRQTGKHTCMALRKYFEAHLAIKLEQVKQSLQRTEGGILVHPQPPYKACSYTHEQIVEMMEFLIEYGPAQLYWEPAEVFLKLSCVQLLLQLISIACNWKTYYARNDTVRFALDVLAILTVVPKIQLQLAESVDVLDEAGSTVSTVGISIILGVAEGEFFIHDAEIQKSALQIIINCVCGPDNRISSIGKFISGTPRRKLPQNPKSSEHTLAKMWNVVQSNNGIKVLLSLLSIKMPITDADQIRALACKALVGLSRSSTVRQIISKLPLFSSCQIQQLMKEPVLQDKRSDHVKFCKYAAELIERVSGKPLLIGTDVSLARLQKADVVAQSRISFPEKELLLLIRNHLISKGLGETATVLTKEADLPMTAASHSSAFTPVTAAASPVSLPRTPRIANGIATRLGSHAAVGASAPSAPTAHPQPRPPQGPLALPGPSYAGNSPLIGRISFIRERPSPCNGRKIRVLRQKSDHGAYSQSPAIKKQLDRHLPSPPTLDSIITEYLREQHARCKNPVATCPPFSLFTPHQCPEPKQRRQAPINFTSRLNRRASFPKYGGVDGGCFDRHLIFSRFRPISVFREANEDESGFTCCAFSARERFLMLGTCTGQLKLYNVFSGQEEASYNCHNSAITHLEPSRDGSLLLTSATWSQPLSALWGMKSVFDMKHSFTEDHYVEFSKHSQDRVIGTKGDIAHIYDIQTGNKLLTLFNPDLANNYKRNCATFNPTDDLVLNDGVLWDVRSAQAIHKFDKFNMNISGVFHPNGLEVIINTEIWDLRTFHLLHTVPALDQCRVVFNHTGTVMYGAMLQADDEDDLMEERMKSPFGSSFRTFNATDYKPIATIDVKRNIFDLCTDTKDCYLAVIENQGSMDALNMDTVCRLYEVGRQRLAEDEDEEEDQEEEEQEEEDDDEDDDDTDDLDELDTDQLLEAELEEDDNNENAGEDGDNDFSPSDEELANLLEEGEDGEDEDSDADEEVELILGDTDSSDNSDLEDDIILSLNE"}
{"target": "DCAF1", "setting": "66.21 °C", "SYPRO Orange fluorescence [a.u.]": 52500}
{"target": "DCAF1", "setting": "94.41 °C", "SYPRO Orange fluorescence [a.u.]": 29000}
{"target": "DCAF1", "setting": "87.81 °C", "SYPRO Orange fluorescence [a.u.]": 34000}
{"target": "DCAF1", "setting": "43.4 °C", "SYPRO Orange fluorescence [a.u.]": 13800}
{"target": "WDR5", "setting": "33 °C", "SYPRO Orange fluorescence [a.u.]": 13800}
{"target": "WDR5", "setting": "26.4 °C", "SYPRO Orange fluorescence [a.u.]": 13300}
{"target": "DCAF1", "setting": "52.01 °C", "SYPRO Orange fluorescence [a.u.]": 20400}
{"target": "DCAF1", "setting": "52.81 °C", "SYPRO Orange fluorescence [a.u.]": 21900}
{"target": "DCAF1", "setting": "31.6 °C", "SYPRO Orange fluorescence [a.u.]": 8880}
{"target": "WDR5", "setting": "67.61 °C", "SYPRO Orange fluorescence [a.u.]": 20700}
{"target": "DCAF1", "setting": "50.8 °C", "SYPRO Orange fluorescence [a.u.]": 18800}
{"data": "Set 2", "SMILES": "CCC1(c2cccc(-c3cn(C)nc3C)c2)C2=C(Nc3n[nH]cc31)C(F)C(C)(C)CC2=O (single isomer, unassigned)", "tested at": "1 µM"}
{"target": "Calcium/calmodulin-dependent protein kinase type II subunit beta (CAMK2B, Homo sapiens, UniProt Q13554)", "assay": "kinase binding, KINOMEscan", "how to read": "baseline: DMSO control", "remaining binding": "100%"}
{"target": "Calcium/calmodulin-dependent protein kinase type 1 (CAMK1, Homo sapiens, UniProt Q14012)", "assay": "kinase binding, KINOMEscan", "how to read": "baseline: DMSO control", "remaining binding": "93%"}
{"target": "Serine/threonine-protein kinase pim-3 (PIM3, Homo sapiens, UniProt Q86V86)", "assay": "binding, competition with immobilised ligand", "remaining binding": "100%"}
{"target": "Testis-specific serine/threonine-protein kinase 1 (TSSK1B, Homo sapiens, UniProt Q9BXA7)", "assay": "kinase binding, KINOMEscan", "how to read": "baseline: DMSO control", "remaining binding": "90%"}
{"target": "Mitogen-activated protein kinase kinase kinase 9 (MAP3K9, Homo sapiens, UniProt P80192)", "assay": "binding, competition with immobilised ligand", "remaining binding": "100%"}
{"target": "Phosphatidylinositol 5-phosphate 4-kinase type-2 beta (PIP4K2B, Homo sapiens, UniProt P78356)", "assay": "binding, competition with immobilised ligand", "remaining binding": "100%"}
{"target": "Phosphatidylinositol 3-kinase catalytic subunit type 3 (PIK3C3, Homo sapiens, UniProt Q8NEB9)", "assay": "kinase binding, KINOMEscan", "how to read": "baseline: DMSO control", "remaining binding": "88%"}
{"target": "Serine/threonine-protein kinase LATS1 (LATS1, Homo sapiens, UniProt O95835)", "assay": "kinase binding, KINOMEscan", "how to read": "baseline: DMSO control", "remaining binding": "89%"}
{"target": "Tyrosine-protein kinase ABL1, phosphorylated (ABL1, Homo sapiens, UniProt P00519, E255K)", "assay": "kinase binding, KINOMEscan", "how to read": "baseline: DMSO control", "remaining binding": "77%"}
{"target": "Tyrosine-protein kinase ABL1, phosphorylated (ABL1, Homo sapiens, UniProt P00519, T315I)", "assay": "binding, competition with immobilised ligand", "remaining binding": "99%"}
{"target": "Hepatocyte growth factor receptor (MET, Homo sapiens, UniProt P08581, Y1235D)", "assay": "binding, competition with immobilised ligand", "remaining binding": "100%"}
{"target": "Tyrosine-protein kinase Fyn (FYN, Homo sapiens, UniProt P06241)", "assay": "binding, competition with immobilised ligand", "remaining binding": "100%"}
{"target": "Phosphatidylinositol 4,5-bisphosphate 3-kinase catalytic subunit alpha isoform (PIK3CA, Homo sapiens, UniProt P42336, H1047L)", "assay": "binding, competition with immobilised ligand", "remaining binding": "96%"}
{"target": "Serine/threonine-protein kinase pim-2 (PIM2, Homo sapiens, UniProt Q9P1W9)", "assay": "kinase binding, KINOMEscan", "how to read": "baseline: DMSO control", "remaining binding": "100%"}
{"target": "Mast/stem cell growth factor receptor Kit (KIT, Homo sapiens, UniProt P10721, L576P)", "assay": "binding, competition with immobilised ligand", "remaining binding": "77%"}
{"data": "Set 3", "SMILES": "O=C(Nc1ccccc1)Nc1cccc(Oc2ccc3nccn3n2)c1"}
{"target": "Serine/threonine-protein kinase RIO3 (RIOK3, Homo sapiens, UniProt O14730)", "assay": "binding", "setting": "1 µM", "remaining binding [%]": 85}
{"target": "Ephrin type-B receptor 1 (EPHB1, Homo sapiens, UniProt P54762)", "assay": "cell-free binding", "setting": "1 µM", "remaining binding [%]": 100}
{"target": "Receptor tyrosine-protein kinase erbB-2 (ERBB2, Homo sapiens, UniProt P04626)", "assay": "binding, competition with immobilised ligand", "setting": "1 µM", "remaining binding [%]": 62}
{"target": "Mitogen-activated protein kinase 12 (MAPK12, Homo sapiens, UniProt P53778)", "assay": "cell-free binding", "setting": "1 µM", "remaining binding [%]": 81}
{"target": "Proto-oncogene tyrosine-protein kinase ROS (ROS1, Homo sapiens, UniProt P08922)", "assay": "binding", "setting": "1 µM", "remaining binding [%]": 100}
{"target": "Serine/threonine-protein kinase PLK4 (PLK4, Homo sapiens, UniProt O00444)", "assay": "binding, competition with immobilised ligand", "setting": "1 µM", "remaining binding [%]": 100}
{"target": "Serine/threonine-protein kinase B-raf (BRAF, Homo sapiens, UniProt P15056, V600E)", "assay": "binding", "setting": "1 µM", "remaining binding [%]": 49}
{"target": "Calcium/calmodulin-dependent protein kinase kinase 2 (CAMKK2, Homo sapiens, UniProt Q96RR4)", "assay": "binding", "setting": "1 µM", "remaining binding [%]": 100}
{"target": "Serine/threonine-protein kinase MRCK gamma (CDC42BPG, Homo sapiens, UniProt Q6DT37)", "assay": "DiscoverX cell-free binding", "setting": "1000 nM", "remaining binding [%]": 100}
{"target": "Serine/threonine-protein kinase PAK 1 (PAK1, Homo sapiens, UniProt Q13153)", "assay": "binding", "setting": "1 µM", "remaining binding [%]": 100}
{"target": "Calcium/calmodulin-dependent protein kinase type 1 (CAMK1, Homo sapiens, UniProt Q14012)", "assay": "binding", "setting": "1 µM", "remaining binding [%]": 100}
{"target": "Dual specificity protein kinase CLK2 (CLK2, Homo sapiens, UniProt P49760)", "assay": "binding", "setting": "1 µM", "remaining binding [%]": 100}
{"target": "Casein kinase II subunit alpha (CSNK2A1, Homo sapiens, UniProt P68400)", "assay": "binding", "setting": "1 µM", "remaining binding [%]": 100}
{"target": "Bone morphogenetic protein receptor type-1B (BMPR1B, Homo sapiens, UniProt O00238)", "assay": "binding, competition with immobilised ligand", "setting": "1 µM", "remaining binding [%]": 100}
{"data": "Set 4", "Structure (SMILES)": "COc1cc(-c2nc3ccc(C(=O)NCCCN(C)C)cc3n2C2CCC2)cc(OC)c1OC"}
{"target": "Phosphorylase b kinase gamma catalytic chain, skeletal muscle/heart isoform (PHKG1, Homo sapiens, UniProt Q16816)", "assay": "binding, competition with immobilised ligand", "setting": "1 µM", "remaining binding": "100%"}
{"target": "Ephrin type-A receptor 3 (EPHA3, Homo sapiens, UniProt P29320)", "assay": "binding, competition with immobilised ligand", "setting": "1 µM", "remaining binding": "95%"}
{"target": "Homeodomain-interacting protein kinase 3 (HIPK3, Homo sapiens, UniProt Q9H422)", "assay": "binding, competition with immobilised ligand", "setting": "1 µM", "remaining binding": "76%"}
{"target": "Beta-adrenergic receptor kinase 1 (GRK2, Homo sapiens, UniProt P25098)", "assay": "binding, competition with immobilised ligand", "setting": "1 µM", "remaining binding": "77%"}
{"target": "Serine/threonine-protein kinase Nek6 (NEK6, Homo sapiens, UniProt Q9HC98)", "assay": "binding, competition with immobilised ligand", "setting": "1 µM", "remaining binding": "100%"}
{"target": "Myosin-IIIb (MYO3B, Homo sapiens, UniProt Q8WXR4)", "assay": "binding, competition with immobilised ligand", "setting": "1 µM", "remaining binding": "100%"}
{"target": "Serine/threonine-protein kinase ULK3 (ULK3, Homo sapiens, UniProt Q6PHR2)", "assay": "binding, competition with immobilised ligand", "setting": "1 µM", "remaining binding": "99%"}
{"target": "Epidermal growth factor receptor (EGFR, Homo sapiens, UniProt P00533, del752-759)", "assay": "binding, competition with immobilised ligand", "setting": "1 µM", "remaining binding": "86%"}
{"target": "Serine/threonine-protein kinase TAO1 (TAOK1, Homo sapiens, UniProt Q7L7X3)", "assay": "binding, competition with immobilised ligand", "setting": "1 µM", "remaining binding": "100%"}
{"target": "Mitogen-activated protein kinase kinase kinase 12 (MAP3K12, Homo sapiens, UniProt Q12852)", "assay": "binding, competition with immobilised ligand", "setting": "1 µM", "remaining binding": "100%"}
{"target": "Dual specificity testis-specific protein kinase 1 (TESK1, Homo sapiens, UniProt Q15569)", "assay": "binding, competition with immobilised ligand", "setting": "1 µM", "remaining binding": "98%"}
{"target": "STE20-like serine/threonine-protein kinase (SLK, Homo sapiens, UniProt Q9H2G2)", "assay": "binding, competition with immobilised ligand", "setting": "1 µM", "remaining binding": "40%"}
{"target": "Phosphatidylinositol 4,5-bisphosphate 3-kinase catalytic subunit alpha isoform (PIK3CA, Homo sapiens, UniProt P42336, E545K)", "assay": "binding, competition with immobilised ligand", "setting": "1 µM", "remaining binding": "99%"}
{"target": "Serine/threonine-protein kinase TAO2 (TAOK2, Homo sapiens, UniProt Q9UL54)", "assay": "binding, competition with immobilised ligand", "setting": "1 µM", "remaining binding": "100%"}
{"target": "FLT3 ITD F691L human", "assay": "KINOMEscan", "setting": "1000 nM", "how to read": "baseline: DMSO control", "remaining binding": "73%"}
{"target": "Platelet-derived growth factor receptor alpha (PDGFRA, Homo sapiens, UniProt P16234)", "assay": "binding, competition with immobilised ligand", "setting": "1 µM", "remaining binding": "92%"}
{"target": "Serine/threonine-protein kinase 36 (STK36, Homo sapiens, UniProt Q9NRP7)", "assay": "binding, competition with immobilised ligand", "setting": "1 µM", "remaining binding": "93%"}
{"target": "RAC-gamma serine/threonine-protein kinase (AKT3, Homo sapiens, UniProt Q9Y243)", "assay": "binding, competition with immobilised ligand", "setting": "1 µM", "remaining binding": "91%"}
{"target": "Cyclin-dependent kinase 11B (CDK11B, Homo sapiens, UniProt P21127)", "assay": "binding, competition with immobilised ligand", "setting": "1 µM", "remaining binding": "96%"}
{"note": "A few entries again (set 4):"}
{"target": "Serine/threonine-protein kinase 36 (STK36, Homo sapiens, UniProt Q9NRP7)", "assay": "binding, competition with immobilised ligand", "setting": "1 µM", "remaining binding": "93%"}
{"target": "Myosin-IIIb (MYO3B, Homo sapiens, UniProt Q8WXR4)", "assay": "binding, competition with immobilised ligand", "setting": "1 µM", "remaining binding": "100%"}
{"target": "Homeodomain-interacting protein kinase 3 (HIPK3, Homo sapiens, UniProt Q9H422)", "assay": "binding, competition with immobilised ligand", "setting": "1 µM", "remaining binding": "76%"}
{"target": "RAC-gamma serine/threonine-protein kinase (AKT3, Homo sapiens, UniProt Q9Y243)", "assay": "binding, competition with immobilised ligand", "setting": "1 µM", "remaining binding": "91%"}
{"target": "Epidermal growth factor receptor (EGFR, Homo sapiens, UniProt P00533, del752-759)", "assay": "binding, competition with immobilised ligand", "setting": "1 µM", "remaining binding": "86%"}
